Measurements collected from several papers.
A part holds a random share of what one study measured.

Set 1 — technique: RNA Bind-n-Seq; form: RNA; medium: in vitro; concentration: 365 nM; reference: no-protein control; direction: higher = stronger binding; measurement: RBNS enrichment (R)
Target: RNA binding protein fox-1 homolog 2, RRM domain, GST-SBP tag (RBFOX2, Homo sapiens, UniProt O43251-10, residues 100-194)
Setting: natural RNA segment, single round, ends assumed
Shared flanks, not repeated: GGGAGUUCUACAGUCCGACGAUC … UGGAAUUCUCGGGUGCCAA
Construct (chain): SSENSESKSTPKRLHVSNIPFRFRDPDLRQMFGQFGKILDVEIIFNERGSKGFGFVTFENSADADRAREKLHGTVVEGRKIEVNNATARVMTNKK
AAGCUGAAGGUGCUUUUUCAUCAGAACCUUAACAUGGCUGUUGAUGGUACCCUGGCUGCAGCCCAGCGGGGGCUGGAGAGGCAGGGGAGGGCAGUGGUCCUUCCAAAUAG: 0.273
CGUAAAUGUCUAGUCUUCUCACAUAGAGAUUAACCAACAAACUUGUGUGGCUGACUUUUGUGUAAGAAUCAUAGUUUGCUUUAGAAUACAAAUCUUUAAGUCAUUUUAAC: 0.395
CAGGCACCAGGCGCAAACUGCUUCCCGCUGUUGGCCAUCCCUUCCCCAGCCACAGGUGUCCCUGCCCCCAGGACAGUCCAGGGCCAGGGGCUUCUGUGAGAGGCAGAGGG: 0.187
GCACCCUUAUCCCAGUUAUAAGACAGUCAAAAUGACUAUUUCCUAAAUAUUGUGAGUGUAUGAAAUGUGAAAUUAAAGCAAAAACUGGAGACUUUUAAUGUAUUUCUUUA: 1.07
AAACCCAUACACAAGUGGAUUUGGCCAUCUUUGGGCAGUGAGGUCAAAUGUGAAUAUGUGUAAAAGUGCUUUUCAGAACUGCAUUACUAUGAGAAAACAUCAAAACUGCU: 0.46
UCUUUUAAGGUGCCUCUUCAGGGACACAGUGUGUCUCUCUGAUUGGGCUUCUAAAUCAAAAGCCUGAUGUUCGUGUCCCUCUCAUAGGGGGAGCUUUGGACACAGGACCA: 0.305
AAGACCUGUCUUCUGUGAGCUGUGCUCAUGUGCAGUGGAGCAGACCUGCUUCCGCCUGGAGGAGAGCUGGGCAUCCAUGUUAGCCACAGUUCCUCAUCCACAGUGCUCCC: 0.282
UCCUAGUUUUUCAUAGGAGUCUAGGAUUUUGAUCUUUUAAAAAAUACAGUGUGAUUUCAUGCUUUUGAACAUCUUUUUUUCAUUGAAACAAAUUCAAGUUCUUGGCUUAA: 0.576

Set 2 — technique: universal PBM; form: double-stranded DNA, one strand shown; medium: in vitro; concentration: not given; direction: higher = stronger binding; measurement: E-score
Target: Sal-like protein 4, full length isoform B (SALL4, Homo sapiens, UniProt Q9UJQ4-2, residues 1-616)
Setting: 8-mer, flanks averaged, mean of replicates
GAGGTCAC: -0.169
ATAAGAGA: 0.257
CAGGAACA: 0.0883
ACGCACTG: -0.183
AGGGAGAA: -0.116
GGTTGGTA: -0.00019
CCTCATTA: 0.249
AGACGAGC: -0.118

Set 3 — action: inhibitor; concentration: 20 µM; measurement: inhibition
Target: Replicase polyprotein 1ab, nsp13 helicase (rep, Severe acute respiratory syndrome coronavirus 2, UniProt P0DTD1)
CC(N)Cc1c[nH]c2ccc(OCc3cccs3)cc12 (stereo not shown): 5.85%
N[C@@H](CSCC(=O)O)C(=O)O: 1.96%
Clc1ccc(C(Cn2ccnc2)OCc2ccsc2Cl)c(Cl)c1 (stereo not shown): -1.32%
C[C@]12COC(=O)C[C@@H]1CC[C@@H]1[C@@H]2CC[C@@]2(C)[C@H]1CC[C@]2(C)O: 8.05%
CC(C)(COP(=O)(O)OP(=O)(O)OC[C@H]1O[C@@H](n2cnc3c(N)ncnc32)[C@H](O)[C@@H]1OP(=O)(O)O)[C@@H](O)C(=O)NCCC(=O)NCCS: -2.27%
CCOC(=S)SSC(=S)OCC: 53.3%
C=C(C)[C@@H]1[C@H]2OC(=O)[C@@H]1[C@]1(O)C[C@H]3O[C@]34C(=O)O[C@H]2[C@]14C: 7.25%
CCCN(CCC)C1CCc2cccc(O)c2C1 (stereo not shown): 7.12%
NC(=O)[C@H]1CCS[C@@H]2C[C@]3(CCCN3C(=O)Cc3ccc(NC(=O)COc4ccc(Cl)cc4Cl)cc3)C(=O)N12: -6.51%
CN1C[C@H](CNC(=O)OCc2ccccc2)C[C@@H]2c3cccc4c3c(cn4C)C[C@H]21: 8.1%
Cn1cc([S+](C)[O-])c(=O)c2ccc(F)cc21 (stereo not shown): 1.42%
COc1cc(C[C@@H]2NCCc3cc(O)c(O)cc32)cc(OC)c1OC: 3.37%
C[C@@]1(F)[C@H](O)[C@@H](CO)O[C@H]1n1ccc(N)nc1=O: -0.03%
CC(C)(C)c1cc(/C=C(\C#N)C(N)=S)cc(C(C)(C)C)c1O: 0.44%
C=C(C)[C@@H]1CC[C@]2(CO)CC[C@]3(C)[C@H](CC[C@@H]4[C@@]5(C)CC[C@H](O)C(C)(C)[C@@H]5CC[C@]43C)[C@@H]12: -1.56%
CCc1c2c(nc3ccc(OC(=O)N4CCC(N5CCCCC5)CC4)cc13)-c1cc3c(c(=O)n1C2)COC(=O)[C@]3(O)CC: 3.63%
CC(C)[C@@]1(NC(=O)[C@@H]2C[C@@H]3c4cccc5[nH]cc(c45)C[C@H]3N(C)C2)O[C@@]2(O)[C@@H]3CCCN3C(=O)[C@H](Cc3ccccc3)N2C1=O: 7.95%
Clc1cc(Cl)c(OCC#CI)cc1Cl: 21.6%
COc1cc(C(=O)N2CCC(N3CCN(C)CC3)CC2)ccc1Nc1ncc2c(n1)N(C)c1ccccc1C(=O)N2C: 9.44%
NCc1c[nH]c(=S)n1[C@H]1CCc2c(F)cc(F)cc2C1: 1.98%
CCC1(c2ncc[nH]2)Cc2ccccc2O1 (stereo not shown): 2.79%
CCCC1(CCC)CCC2(CCN(CCCN(CC)CC)C2)CC1: -1.95%
CC(=O)Oc1ccccc1C(=O)Nc1ccccc1: 10.8%
C=C1C(=O)O[C@@H]2C[C@@]3(C)CCC[C@H](C)C3=C[C@H]12: 8.94%
CCc1c(C(=O)Nc2cc(S(=O)(=O)N(CC)CC)ccc2O)[nH]c(C)c1C(C)=O: -8.78%

Set 4 — technique: protein binding microarray; form: double-stranded DNA, one strand shown; medium: in vitro; concentration: not given; reference: not given; direction: higher = stronger binding; measurement: E-score
Target: Histone acetyltransferase KAT6A, winged helix 2, GST fusion (KAT6A, Homo sapiens, UniProt Q92794, residues 85-181)
Setting: 8-mer, flanks averaged, mean of 2 arrays, mostly near background
Construct (chain): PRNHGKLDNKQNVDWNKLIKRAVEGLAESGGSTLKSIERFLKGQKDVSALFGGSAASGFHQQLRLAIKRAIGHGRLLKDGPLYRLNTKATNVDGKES
AATGAATG: -0.0471
AGGGTCCG: -0.0437
CAATGGAG: -0.0563
AGGGGCCG: 0.0836
CCGCTTTC: -0.0287
TAAAAAAA: 0.174
AACTAGTT: -0.179
ATCCGTGC: 0.0903

Set 5 — cell line: HEK-293T/ACE2; concentration: concentration not given; time: 16 (unit not given); reference: vehicle; measurement: viability
C[C@H](O)C(=O)Nc1c(I)c(C(=O)NC(CO)CO)c(I)c(C(=O)NC(CO)CO)c1I: 104%
O=c1[nH]cnc2c1ncn2[C@H]1CC[C@@H](CO)O1: 99.3%
Cc1ccccc1C(=O)Nc1ccc(C(=O)N2CCCC(O)c3cc(Cl)ccc32)c(C)c1 (stereo not shown): 104%

Some of these lines once more (set 3):
Clc1cc(Cl)c(OCC#CI)cc1Cl: 21.6%
CC(=O)Oc1ccccc1C(=O)Nc1ccccc1: 10.8%
C=C(C)[C@@H]1CC[C@]2(CO)CC[C@]3(C)[C@H](CC[C@@H]4[C@@]5(C)CC[C@H](O)C(C)(C)[C@@H]5CC[C@]43C)[C@@H]12: -1.56%
CC(C)(COP(=O)(O)OP(=O)(O)OC[C@H]1O[C@@H](n2cnc3c(N)ncnc32)[C@H](O)[C@@H]1OP(=O)(O)O)[C@@H](O)C(=O)NCCC(=O)NCCS: -2.27%
